Experimental data of several laboratories.
Compare with care: the assays were run in different laboratories. ± gives the spread as reported.
Cell line: HEK293

For `CC(C)[C@@H](C)Nc1c(-c2c(F)cc(C#CCCN)cc2F)c(Cl)nc2ncnn12`, the CC50 was 214 nM (cell growth or viability, ATP luminescence; 48 h).
The CC50 of `NC[C@H]1O[C@H](O[C@H]2[C@H](OCCCCCCCCCCCCn3cc(CNc4nc(NCc5cn(CCCCCCCCCCCCO[C@@H]6[C@@H](O)[C@H](N)C[C@H](N)[C@H]6O[C@H]6O[C@H](CN)[C@@H](O)C[C@H]6N)nn5)nc(NCc5cn(CCCCCCCCCCCCO[C@@H]6[C@@H](O)[C@H](N)C[C@H](N)[C@H]6O[C@H]6O[C@H](CN)[C@@H](O)C[C@H]6N)nn5)n4)nn3)[C@@H](O)[C@H](N)C[C@@H]2N)[C@H](N)C[C@@H]1O` is reported as 17800 nM (cell growth or viability, resazurin; 48 h).
The IC50 of `Cc1[nH][n+]([Pd-2]([Br])([Br])[n+]2[nH]c(C)c(CSCc3ccccc3)c2C)c(C)c1CSCc1ccccc1` is reported as 980 ± 20 nM (cytotoxicity, 7-AAD flow cytometry; 24 h).
`O=C(CN1CCC(NC(=O)CSc2ccc(Cl)cc2)CC1)Nc1ccccc1` — result for viability: “not toxic” (MTT; concentration not given, 18 h, all tested concentrations).
Under “highest non-toxic concentration”, `COC(=O)[C@H](Cc1ccccc1)NC(=O)[C@H](Cc1ccccc1)N=Cc1ccc(C=N[C@@H](Cc2ccccc2)C(=O)N[C@@H](Cc2ccccc2)C(=O)OC)cc1` is recorded as no more than 75 µM (MTT; 24 h, 37 °C, self-assembled structures).
The CC50 of `C[C@H](Nc1c(-c2c(F)cc(OCCCN(C)C)cc2F)c(Cl)nc2ncnn12)C1CC1` is reported as 15.4 nM (cell growth or viability, ATP luminescence; 48 h).
The viability of `CC(C)Cc1ccc(C(C)C(=O)N/N=C/c2ccc(OCC(=O)N/N=C/c3ccc([N+](=O)[O-])cc3)cc2)cc1` (centres unmarked) is reported as 47.2% (MTT; 80 µM, 48 h).
`CC(Nc1c(-c2c(F)cc(OCCCN(C)C)cc2F)c(Cl)nc2ncnn12)C(C)(C)C` (centres unmarked) has a CC50 of 10.8 nM (cell growth or viability, ATP luminescence; 48 h).
With `COc1cccc(/C=N/NC(=O)COc2ccc(/C=N/NC(=O)C(C)c3ccc(CC(C)C)cc3)cc2)c1O` (centres unmarked) the viability was 49.8% (MTT; 80 µM, 48 h).
For `NCC1OC(OC2C(N)CC(N)C(OC3OC(CO)C(O)C(N)C3O)C2OCCCCn2cc(CNc3nc(NCc4cn(CCCCOC5C(OC6OC(CN)C(O)CC6N)C(N)CC(N)C5OC5OC(CO)C(O)C(N)C5O)nn4)nc(NCc4cn(CCCCOC5C(OC6OC(CN)C(O)CC6N)C(N)CC(N)C5OC5OC(CO)C(O)C(N)C5O)nn4)n3)nn2)C(N)CC1O` (centres unmarked), the viability was 88% (cell growth or viability, resazurin; 27 µM, 48 h).
For `CC(C)Cc1ccc(C(C)C(=O)N/N=C/c2ccc(OCC(=O)N/N=C/c3c(O)ccc4ccccc34)cc2)cc1` (centres unmarked), the viability was 28.6% (MTT; 80 µM, 48 h).
With `CN(C)CCCOc1cc(F)c(-c2c(Cl)nc3ncnn3c2NCC(C)(C)C)c(F)c1` the CC50 was 22.7 nM (cell growth or viability, ATP luminescence; 48 h).
With `CC(C)Cc1ccc(C(C)C(=O)N/N=C/c2ccc(OCC(=O)N/N=C/c3cccc(O)c3)cc2)cc1` (centres unmarked) the viability was 49.5% (MTT; 100 µM, 48 h).
With `COc1cc(C2CC(=O)Nc3nc(N)[nH]c(=O)c32)ccc1O` (centres unmarked) the viability reduction was roughly 10% (MTT; concentration not given, 96 h).

A few entries again:
Under “highest non-toxic concentration”, `COC(=O)[C@H](Cc1ccccc1)NC(=O)[C@H](Cc1ccccc1)N=Cc1ccc(C=N[C@@H](Cc2ccccc2)C(=O)N[C@@H](Cc2ccccc2)C(=O)OC)cc1` is recorded as no more than 75 µM (MTT; 24 h, 37 °C, self-assembled structures).
The CC50 of `C[C@H](Nc1c(-c2c(F)cc(OCCCN(C)C)cc2F)c(Cl)nc2ncnn12)C1CC1` is reported as 15.4 nM (cell growth or viability, ATP luminescence; 48 h).
